Assay results collected from several papers.
Parts stem from different laboratories: compare values within a part only. Several values in a cell are separate wells, animals, samples, runs or records.
Chain of UniProt Q99640 (whole entry, looked up): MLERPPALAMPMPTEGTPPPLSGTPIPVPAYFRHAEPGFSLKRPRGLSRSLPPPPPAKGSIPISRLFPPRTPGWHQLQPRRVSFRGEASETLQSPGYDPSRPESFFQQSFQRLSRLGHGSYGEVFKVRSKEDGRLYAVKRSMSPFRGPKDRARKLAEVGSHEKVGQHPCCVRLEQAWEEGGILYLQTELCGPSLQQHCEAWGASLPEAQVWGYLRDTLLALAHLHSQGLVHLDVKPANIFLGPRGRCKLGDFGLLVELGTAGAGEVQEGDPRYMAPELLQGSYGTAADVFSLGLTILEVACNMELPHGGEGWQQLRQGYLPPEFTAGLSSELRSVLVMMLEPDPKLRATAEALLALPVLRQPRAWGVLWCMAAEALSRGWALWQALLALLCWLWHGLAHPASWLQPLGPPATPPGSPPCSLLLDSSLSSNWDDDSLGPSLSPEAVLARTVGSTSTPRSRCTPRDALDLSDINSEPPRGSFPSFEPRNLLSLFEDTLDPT

Series 1 — observed: thermal unfolding; technique: differential scanning fluorimetry; tested at: 5.5 µM; direction: higher = more unfolded
Structure (SMILES): C[C@@H]1CN(c2ccc(-c3cc(C(=O)NCCOCCOCCOCCOCCOCCOCCNC(=O)/C=C/c4[nH]cc(C(=O)N[C@@H](CC(N)=O)c5ccc(F)c(Cl)c5)c4-c4ccc(Cl)cc4F)ccc3F)cc2NC(=O)c2ccc(F)cc2C(F)(F)F)C[C@H](C)N1C
DCAF1: DDB1- and CUL4-associated factor 1 (DCAF1, Homo sapiens, UniProt Q9Y4B6)
Chain of UniProt Q9Y4B6 (whole entry, looked up): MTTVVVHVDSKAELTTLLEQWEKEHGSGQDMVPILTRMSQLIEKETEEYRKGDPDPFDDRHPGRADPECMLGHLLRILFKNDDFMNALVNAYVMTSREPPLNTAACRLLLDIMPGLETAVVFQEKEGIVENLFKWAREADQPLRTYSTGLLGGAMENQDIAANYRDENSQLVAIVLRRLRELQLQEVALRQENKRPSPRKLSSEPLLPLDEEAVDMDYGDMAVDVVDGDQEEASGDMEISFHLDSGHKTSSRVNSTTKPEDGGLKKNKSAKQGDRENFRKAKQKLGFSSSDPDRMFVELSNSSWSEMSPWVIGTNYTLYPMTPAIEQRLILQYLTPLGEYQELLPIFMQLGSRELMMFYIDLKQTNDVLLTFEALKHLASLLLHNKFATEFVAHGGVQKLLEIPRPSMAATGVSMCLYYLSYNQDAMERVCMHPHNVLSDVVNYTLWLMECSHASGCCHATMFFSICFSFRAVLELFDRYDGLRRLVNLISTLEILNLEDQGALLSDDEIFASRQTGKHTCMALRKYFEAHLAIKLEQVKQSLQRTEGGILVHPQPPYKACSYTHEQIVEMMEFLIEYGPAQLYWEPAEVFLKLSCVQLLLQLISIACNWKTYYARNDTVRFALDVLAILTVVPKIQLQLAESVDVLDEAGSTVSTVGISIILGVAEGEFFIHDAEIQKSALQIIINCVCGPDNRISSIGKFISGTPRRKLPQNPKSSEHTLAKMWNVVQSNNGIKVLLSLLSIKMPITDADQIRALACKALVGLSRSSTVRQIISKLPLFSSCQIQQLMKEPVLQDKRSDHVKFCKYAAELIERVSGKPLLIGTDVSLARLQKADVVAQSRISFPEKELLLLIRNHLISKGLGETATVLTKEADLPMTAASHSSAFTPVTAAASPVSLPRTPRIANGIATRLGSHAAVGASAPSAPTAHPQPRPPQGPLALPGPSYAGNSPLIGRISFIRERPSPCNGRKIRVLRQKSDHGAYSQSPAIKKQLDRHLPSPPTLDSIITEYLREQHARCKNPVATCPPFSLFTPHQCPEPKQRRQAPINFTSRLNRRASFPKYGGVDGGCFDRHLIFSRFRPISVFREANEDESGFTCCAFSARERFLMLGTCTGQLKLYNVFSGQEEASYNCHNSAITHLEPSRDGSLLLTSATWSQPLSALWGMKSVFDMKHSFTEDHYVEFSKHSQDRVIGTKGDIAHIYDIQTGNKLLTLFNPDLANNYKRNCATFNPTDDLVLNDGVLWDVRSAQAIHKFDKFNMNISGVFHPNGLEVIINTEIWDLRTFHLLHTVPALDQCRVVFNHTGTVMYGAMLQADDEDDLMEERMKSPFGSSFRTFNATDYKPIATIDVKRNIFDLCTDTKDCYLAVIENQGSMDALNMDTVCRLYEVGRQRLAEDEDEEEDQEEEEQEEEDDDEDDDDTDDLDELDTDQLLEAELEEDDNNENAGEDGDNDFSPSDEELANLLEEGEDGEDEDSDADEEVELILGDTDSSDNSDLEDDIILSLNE
WDR5: WD repeat-containing protein 5 (WDR5, Homo sapiens, UniProt P61964)
| target | conditions | SYPRO Orange fluorescence [a.u.] |
| --- | --- | --- |
| DCAF1 | 26.2 °C | 7450 |
| WDR5 | 84.21 °C | 63300 |
| WDR5 | 71.01 °C | 31300 |
| DCAF1 | 75.61 °C | 43200 |

Other studies, line by line
| Compound | tested on | assay | test system | conditions | endpoint | result |
| --- | --- | --- | --- | --- | --- | --- |
| Cc1ccc(O)c(C)c1-c1cnc2[nH]c(-c3cnc(N4CCC5(CC4)CC(N4CCN(c6ccc(NC7CCC(=O)NC7=O)cc6F)CC4)CO5)nc3)cc2c1C#N (centres unmarked) | MDA-MB-157 | item: CDK1 phospho-Thr14 | – | 12.35 nM | inhibition | 9.1% |
| Cc1nc(C)c(C=[N+]([O-])C(C)(C)C)nc1C | – | Western blot | MPTP mouse model | 90 mg/kg | pSer473-Akt/total Akt | 131 and 94.3 and 112 and 132 |
| Cc1ncc(-c2cc3c(C(F)(F)F)c(-c4c(C)ccc(O)c4C)cnc3[nH]2)cn1 | Membrane-associated tyrosine- and threonine-specific cdc2-inhibitory kinase (PKMYT1, Homo sapiens, UniProt Q99640) | binding, HTRF | – | 3333.33 nM | inhibition | 102% and 103% |
| Cc1ncsc1-c1ccc(C(CO)NC(=O)C2CC(O)CN2C(=O)C(C(C)C)n2cc(-c3ccc(COc4c(-c5c(C)c(F)cc6[nH]ncc56)c(C5CC5)cc5c(N6CC7CC6CN7)nc(OC6CCOCC6)nc45)cc3)nn2)cc1 (centres unmarked) | AsPC-1 | cell viability, CellTiter-Glo | – | overall of experiments | IC50 | 19.3 nM |

Excerpt of the above (other studies, line by line):
| Compound | tested on | assay | test system | conditions | endpoint | result |
| --- | --- | --- | --- | --- | --- | --- |
| Cc1ncc(-c2cc3c(C(F)(F)F)c(-c4c(C)ccc(O)c4C)cnc3[nH]2)cn1 | Membrane-associated tyrosine- and threonine-specific cdc2-inhibitory kinase (PKMYT1, Homo sapiens, UniProt Q99640) | binding, HTRF | – | 3333.33 nM | inhibition | 102% and 103% |
